Assay results collected from several papers.
A part holds a random share of what one study measured. Positions count from the first letter of the parent shown.

Block 1
Target: Prothrombin, mature alpha-thrombin (F2, Homo sapiens, UniProt P00734)
Method: aptamer microarray, sandwich
Molecule type: DNA with 2'F-ANA
Sample: in vitro
Concentration: 200 nM
Setting: whole 15-mer aptamer, many near background
Together with: Cy3 exosite-II aptamer, 400 nM
Direction: higher = stronger binding
Quantity: mean fluorescence intensity
Strand: GGTTGGTGTGGTTGG
2'F-ANA at 1 4 6 10 12 14 15: 49.1 a.u.
2'F-ANA at 2 3 4 7 9 10 11 12 13 14: 156 a.u.
2'F-ANA at 1 2 5 7 8 9 12 13 14: 45.5 a.u.
2'F-ANA at 1 3 4 5 6 10 11 13 15: 50.1 a.u.
2'F-ANA at 1 3 5 8 9 12 14 15: 47.7 a.u.
2'F-ANA at 2 4 6 9 12 13 14: 80.7 a.u.
2'F-ANA at 1 3 4 6 7 8 9 10 11 13 14 15: 57.7 a.u.
2'F-ANA at 1 2 4 5 6 7 10 12 13 14: 59.1 a.u.
2'F-ANA at 1 2 10 11 15: 69.3 a.u.
2'F-ANA at 1 2 3 4 6 12 13 14 15: 67.4 a.u.
2'F-ANA at 1 4 6 8 10: 73 a.u.
2'F-ANA at 1 2 4 5 6 7 13: 53.1 a.u.
2'F-ANA at 1 2 3 4 7 9 10 13: 54.2 a.u.
2'F-ANA at 3 7 10 11 14 15: 423 a.u.
2'F-ANA at 1 2 4 6 8 10 11 12 15: 70.8 a.u.
2'F-ANA at 4 6 7 8 9 10 12 13: 94.3 a.u.
2'F-ANA at 1 2 6 7 8 10 13 14: 46.8 a.u.
2'F-ANA at 3 4 8 10 11 14 15: 186 a.u.
2'F-ANA at 1 2 6 10 11 12 13 14 15: 48.1 a.u.
2'F-ANA at 2 3 6 10: 372 a.u.
2'F-ANA at 1 4 7 8 9 13: 87.7 a.u.
2'F-ANA at 3 4 5 9 10 11 12 13 15: 56.3 a.u.

Block 2
Target: Centromere-binding protein 1, full length, N-terminal tag (CBF1, Saccharomyces cerevisiae, UniProt P17106, residues 1-351)
Chain of UniProt P17106 (whole entry, looked up): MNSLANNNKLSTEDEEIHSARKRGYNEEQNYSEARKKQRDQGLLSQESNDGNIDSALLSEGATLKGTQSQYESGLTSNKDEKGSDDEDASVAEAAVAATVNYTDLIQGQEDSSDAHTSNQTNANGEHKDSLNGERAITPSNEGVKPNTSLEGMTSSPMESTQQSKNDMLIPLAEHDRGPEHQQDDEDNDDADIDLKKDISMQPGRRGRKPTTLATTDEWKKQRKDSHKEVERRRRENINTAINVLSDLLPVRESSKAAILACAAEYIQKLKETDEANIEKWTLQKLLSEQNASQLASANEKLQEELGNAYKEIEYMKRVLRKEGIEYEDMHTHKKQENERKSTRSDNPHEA
Method: protein-binding microarray
Molecule type: double-stranded DNA, one strand shown
Sample: in vitro
Concentration: 0.8 µM
Setting: whole 60-bp probe, no competitor
Direction: higher = stronger binding
Quantity: fluorescence intensity
Constant ends, left off below: … GTCTTGATTCGCTTGACGCTGCTG
CTATGCGATAAATTTAACGTGCTTCTGATCAGGTTC: 587 a.u.
GAAAGGAGGTAACATCAGGTCCGTGGATATGTTTAG: 507 a.u.
GAAAAAACAACCAAGCACGAGAAAGGGAGAGAGTAG: 575 a.u.
CCTAACTACTATAACCACGCCTCATAGCTTCGTACA: 547 a.u.
CTATATCATTTAAATCACATGGACACCCACCGATTC: 2230 a.u.
CTATTTTTTCAGCATCACGAAGAAAAAAAGCTTTTC: 587 a.u.
GAAACATAAGTAATACTCATGACAGAATCAAAATAG: 566 a.u.
GAATCGGAAAGTTGGAACGTGCGCGATTGCACCTAG: 599 a.u.
GAATAAGGCCTTTATGGTGTGAAGTGGGTTTTGTAG: 514 a.u.
CTAAGTTAGAACGATCACGTTGACTCTGAAATATTC: 1710 a.u.
TGTACGAAGCTATATCATGATATTATAGTAGTTAGG: 568 a.u.
GAAGGCGGAAAAGCTCACGTGTGAAGAAGAAAATAG: 3320 a.u.
GAAGCCAATAATCCTCACATGGTGGAGCTACAATAG: 686 a.u.
CTAGTGGGAAGGTATCATCACGTAAACTAAAACTTC: 512 a.u.
GAATAGTTTTACAGACGCGTCACCTGCTATCAATAG: 2790 a.u.
GAAGAAAATCTAAATGTCGTGATGTATAACTTGTAG: 702 a.u.
GAACCCATGTCTCTACTGGTGGTGGTGCTTCTTTAG: 519 a.u.
CTAACTATATTATTACACGCGGTGTAAGAAGATTTC: 526 a.u.

Block 3
Target: CCNB1, cyclin fold, Cln2 fusion (human)
Method: yeast growth competition, sequencing
Sample: yeast
Setting: weak parent motif
Baseline: not given
Direction: higher = stronger binding
Quantity: normalised enrichment score
Parent: WEE1 docking peptide (human); HKTFRKLRLFDTP
R5A: -0.791
K2H: 0.472
R8A: -0.543
K6A: 0.539
P13N: 1.62
R5A L7A: 0.772
K2W: 0.278
R5C: -0.574
F4M: 0.614
H1K: 0.727
T12S: 0.764
L9D: 0.315
L7F: 0.522
P13L: 0.0098
L7G: 1.01
T3S: -0.793
L9M: 0.344
K6G: -0.665
P13K: 0.764
T3A: 0.222
T12Q: 0.734
T3M: 0.423
L7N: 1.3
R5D: 0.539
F10E: -0.416

Block 4
Substance: PhoQ, residues 284 288 289 292 302 303 SLANKL
Method: Sort-seq
Refers to: YFP reporter
Sample: E. coli
Setting: PhoQ-PhoP variant library
Together with: 10 µM Mg2+
Baseline: high Mg2+ state
Direction: higher = stronger signaling
Quantity: fold induction
PhoP, residues 12 14 15 18 19 QYCSL (Escherichia coli, UniProt P23836): 5.23
PhoP, residues 12 14 15 18 19 STHWV (Escherichia coli, UniProt P23836): 2.17
PhoP, residues 12 14 15 18 19 SHWTV (Escherichia coli, UniProt P23836): 11.8

Block 5
Target: ABI1, truncated, D143A, DHFR fusion (Arabidopsis thaliana)
Method: DHFR PCA, deep sequencing
Sample: yeast
Setting: methotrexate growth selection, single substitutions
Together with: (+)-ABA 710 µM
Baseline: wild-type fitted maximum
Direction: higher = stronger binding
Quantity: relative binding score
Parent: PYL1, truncated, DHFR fusion (Arabidopsis thaliana); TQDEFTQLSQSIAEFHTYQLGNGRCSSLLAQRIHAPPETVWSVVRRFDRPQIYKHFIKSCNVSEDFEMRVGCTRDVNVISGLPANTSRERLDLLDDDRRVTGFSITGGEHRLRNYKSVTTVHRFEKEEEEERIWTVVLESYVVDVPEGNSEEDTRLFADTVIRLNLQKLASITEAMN
A158T: 104%
F124K: 90.8%
L8V: 87.2%
H55N: 102%
S104Y: 63.7%
D92G: 62.4%
P50L: -2.51%
T119K: 59.5%
L94S: 81.8%
N61G: 94.4%
A30S: 105%
F157R: -0.648%
A170T: 93.6%
N177H: 110%
R113W: 88.7%
G108V: 34.9%
S140E: 11.7%

Block 6
Target: CRIPT, C-terminal peptide
Method: DHFR complementation, deep sequencing
Sample: yeast
Setting: single substitutions, model-inferred values
Baseline: wild type
Direction: higher = weaker binding
Quantity: binding free energy change
Parent: ERBIN, PDZ domain 1 (human); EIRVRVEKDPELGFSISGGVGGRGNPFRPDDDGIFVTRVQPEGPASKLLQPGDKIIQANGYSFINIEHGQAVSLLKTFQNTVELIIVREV; partner TKNYKQTSV
E1Y: 0.236 kcal/mol
K47D: 0.0858 kcal/mol
E67V: 0.19 kcal/mol
V36Q: 0.947 kcal/mol
T77A: -0.0436 kcal/mol
Q79Y: 0.187 kcal/mol
V87N: -0.00595 kcal/mol
H68P: 1.39 kcal/mol
I85Q: 0.17 kcal/mol
R3I: -0.207 kcal/mol
T37R: 1.23 kcal/mol
T37S: 0.428 kcal/mol
L48V: 0.129 kcal/mol
V4L: 0.0894 kcal/mol
D32A: 0.0307 kcal/mol
G19Q: 1.25 kcal/mol
G60R: 0.159 kcal/mol

Block 7
Target: JUND, bZIP domain (human)
Method: DHFR protein complementation
Sample: yeast
Setting: single substitutions, most at no-binding floor
Baseline: wild-type JUN-FOS pair
Direction: higher = stronger binding
Quantity: binding fitness
Parent: JUN, bZIP domain (human); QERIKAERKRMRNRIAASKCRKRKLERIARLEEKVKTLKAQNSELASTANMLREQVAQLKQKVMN; partner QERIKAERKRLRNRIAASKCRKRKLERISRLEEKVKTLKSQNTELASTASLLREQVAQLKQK
K39V: -0.623 natural log
A57Q: -0.75 natural log
S43R: -0.499 natural log
S43V: -0.748 natural log
E33G: -1.06 natural log
E32N: -1.14 natural log
A57D: -0.488 natural log
I28A: -1.13 natural log
A40T: -0.665 natural log
V56L: -0.551 natural log
A29R: -0.576 natural log
Q55C: -0.915 natural log
E33L: -0.802 natural log
K39C: -1 natural log
V35F: -1.15 natural log
E44H: -0.853 natural log
V56Y: -0.938 natural log
K39D: -1.08 natural log
S47F: -0.718 natural log
S47H: -0.541 natural log

For quick reference, copied from above (block 1):
2'F-ANA at 1 2 4 6 8 10 11 12 15: 70.8 a.u.
2'F-ANA at 1 2 6 7 8 10 13 14: 46.8 a.u.
2'F-ANA at 1 3 4 6 7 8 9 10 11 13 14 15: 57.7 a.u.
2'F-ANA at 4 6 7 8 9 10 12 13: 94.3 a.u.
2'F-ANA at 1 2 10 11 15: 69.3 a.u.
2'F-ANA at 1 4 6 10 12 14 15: 49.1 a.u.
2'F-ANA at 1 2 3 4 6 12 13 14 15: 67.4 a.u.
2'F-ANA at 3 7 10 11 14 15: 423 a.u.
2'F-ANA at 1 2 3 4 7 9 10 13: 54.2 a.u.
2'F-ANA at 3 4 8 10 11 14 15: 186 a.u.
2'F-ANA at 1 2 5 7 8 9 12 13 14: 45.5 a.u.
2'F-ANA at 1 4 7 8 9 13: 87.7 a.u.
